Measurements of several laboratories.
Parts stem from different laboratories: compare values within a part only.

Study 1 — method: protein binding microarray; molecule type: double-stranded DNA, one strand shown; medium: in vitro; tested at: not given; baseline: not given; reading: higher = stronger binding; endpoint: E-score
Target: Histone acetyltransferase KAT6A, winged helix 2, GST fusion (KAT6A, Homo sapiens, UniProt Q92794, residues 85-181)
Notes: 8-mer, flanks averaged, mean of 2 arrays, mostly near background
Construct (chain): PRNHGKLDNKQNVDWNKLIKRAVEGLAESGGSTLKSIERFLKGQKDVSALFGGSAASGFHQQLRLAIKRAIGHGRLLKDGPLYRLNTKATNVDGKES
AACTGAAA: -0.0762
TGATGGCA: -0.131
GGTCCAAC: -0.0346
GCAGAGCA: 0.196
CATCCGAC: 0.178
CTGGCCGC: 0.006
GAGGGCCA: 0.179
AAAGTCAG: -0.0867
AGTCAAAC: -0.128
AGTTACCG: 0.0379
AGCGTATG: -0.202
CGAATTCG: 0.156
GGAAAGAC: -0.135
CGCACTAG: 0.011
ACGGAGCA: -0.0134
CGACAACG: -0.0651
TGAATCCA: 0.0572
GATTGTCC: 0.0118
ACGTAGCG: -0.217
CCCGAGGC: 0.0177
ACGCGGCG: 0.167
ACTTGTAG: -0.135
GCTTAACA: 0.0349
CGCTGTGC: 0.142
AAACTACT: -0.0182

Study 2 — method: RNA Bind-n-Seq; molecule type: RNA; medium: in vitro; tested at: 365 nM; baseline: no-protein control; reading: higher = stronger binding; endpoint: RBNS enrichment (R)
Target: RNA binding protein fox-1 homolog 2, RRM domain, GST-SBP tag (RBFOX2, Homo sapiens, UniProt O43251-10, residues 100-194)
Notes: natural RNA segment, single round, ends assumed
Shared flanks, not repeated: GGGAGUUCUACAGUCCGACGAUC … UGGAAUUCUCGGGUGCCAA
UCCUGCUUCUUGCCGUGAUACUGUGCCCCAGAACAGCCUGGGGUCCCUGCUAGUUCCUGUCAAGGCAUGCCCAGGUUCUCCACAGCUUUCCAGUGCAAAAGGCCUAGACA: 0.726
AUUGUGCAUGGAACUAAAAUGUUAUUGCCUAAUCACUCCAACCCUGCCCCUUUCUGUCCCAUCCUUCCCAAGAAGAGAGAACUUUUUCGAUAAACUAACUACUGUAGAAG: 1.77
UCAGUGGGUAGCUUGGGUUCCGCAUUGUGGGGUCAGUUCAAUGUCCAUAGUUCCUGCCUGCCAUCCUUCUGUGAGGGUCCAUUGCUGCUUGAUGGCCAUCUCUGCCUUUU: 0.741
CACAAAAACAUGAGUGGGGUGAGCCCCAAGUACACAGGUCACGGUACAUCAACACAGUGGUGAUGCUGGAGAACGUUACCCAAGGUCUCAUCAGUGUCUCUGCUGUACUG: 0.424
ACUUAAAAGAUUUCAAAAACGAUUUAGCCUUAUAAUGUAUUUAUUUAUUUAAUUCAUUAAUGAAAGAGAGUGCUCUCUUUAAUGCAGCUUUGGGUAGACAGUCUAAUUCA: 0.504
UUCCUUUUCCACGAACCUCUUCUGUACUUUGAUUGUAAUAGGUUGGCUCUUACACCCAUUCCAAAUGCAGUUUAUUUUUAGACCCGAUUGCAAAUAGUGAUGUAGUUUUA: 0.743
CACCAGAGAGCUCAGGGCAGCUUUAUCUUCCAGGUUUAUCUAAAACUAUCUGUGUUGGGCUUCCCUGACACGGGAGAGGGGCAAGGAUAGACGAUUGACAUGGCACUGAU: 0.482
AGAGUGUUUGUGAAAAAGUUUUAUUUCCUGUUAUGUAUACAUAAUUAAAUGAAAAUUCUUCAGAAAAAGUUUGAUAAAUUGAAUUGUGGUUAUGAAACUAAUUUGCAUUU: 2.3

Study 3 — method: universal PBM; molecule type: double-stranded DNA, one strand shown; medium: in vitro; tested at: 600 nM; reading: higher = stronger binding; endpoint: E-score
Target: Sal-like protein 4, full length isoform A (SALL4, Homo sapiens, UniProt Q9UJQ4, residues 1-1053)
Chain of UniProt Q9UJQ4 (whole entry, looked up): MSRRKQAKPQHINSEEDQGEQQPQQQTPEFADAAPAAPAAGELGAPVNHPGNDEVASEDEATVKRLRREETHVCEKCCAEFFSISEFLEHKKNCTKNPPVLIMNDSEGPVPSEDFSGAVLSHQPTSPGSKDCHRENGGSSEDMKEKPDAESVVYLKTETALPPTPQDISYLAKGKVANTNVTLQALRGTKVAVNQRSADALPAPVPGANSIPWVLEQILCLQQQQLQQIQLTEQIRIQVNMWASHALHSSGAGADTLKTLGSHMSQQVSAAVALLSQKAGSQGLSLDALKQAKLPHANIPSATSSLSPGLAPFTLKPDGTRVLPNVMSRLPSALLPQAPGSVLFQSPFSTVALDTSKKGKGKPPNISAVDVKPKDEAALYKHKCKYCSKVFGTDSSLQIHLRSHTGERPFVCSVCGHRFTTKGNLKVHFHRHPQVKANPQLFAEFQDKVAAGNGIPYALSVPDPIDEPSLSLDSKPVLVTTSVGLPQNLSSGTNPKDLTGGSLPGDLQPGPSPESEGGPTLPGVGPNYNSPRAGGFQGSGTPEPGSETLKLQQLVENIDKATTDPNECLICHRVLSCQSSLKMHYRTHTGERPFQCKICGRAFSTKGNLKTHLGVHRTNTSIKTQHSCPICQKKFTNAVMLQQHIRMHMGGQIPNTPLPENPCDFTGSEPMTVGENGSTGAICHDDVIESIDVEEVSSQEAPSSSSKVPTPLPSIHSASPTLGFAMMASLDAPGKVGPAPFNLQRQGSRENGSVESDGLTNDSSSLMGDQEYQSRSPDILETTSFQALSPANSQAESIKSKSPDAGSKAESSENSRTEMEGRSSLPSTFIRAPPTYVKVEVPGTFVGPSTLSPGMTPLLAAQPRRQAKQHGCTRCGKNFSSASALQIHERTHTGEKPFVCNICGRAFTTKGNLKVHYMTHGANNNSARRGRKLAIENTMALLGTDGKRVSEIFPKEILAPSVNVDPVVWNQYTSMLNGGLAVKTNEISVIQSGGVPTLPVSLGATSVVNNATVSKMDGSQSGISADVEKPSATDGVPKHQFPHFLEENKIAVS
Notes: 8-mer, flanks averaged, mean of replicates
CACCGAGG: -0.343
GATTTGCC: -0.0564
AATACTCA: 0.263
ACTAACCC: -0.152
ACTTACAA: 0.305
AAAACTGT: 0.189
CGGTCTAG: -0.241
CTGTCAGA: -0.166
CGTCCCGA: -0.156
ATCCCATA: 0.222
CGACTGGA: -0.219
GTGACGTA: 0.00543
AATTAGTG: 0.239
GGCTGCAC: -0.26
CGCCGGAG: -0.241
GGCGTCTA: -0.123
ACGGATCG: -0.214
ATAAGGGA: 0.161
AGTGGTAC: -0.163
CAAAGCTC: -0.185
ACACAACT: 0.134
GTATGGCA: 0.00338
GTAGCTCA: -0.0357
AATACTGA: 0.188
GCAGTCGA: -0.14

Study 4 — method: RNA Bind-n-Seq; molecule type: RNA; medium: in vitro; tested at: 200 nM; notes: whole 134-nt RNA, ends assumed; with: 150 mM KCl; baseline: input library; reading: higher = stronger binding; endpoint: log2 enrichment
Target: Fragile X messenger ribonucleoprotein 1, C-terminal low-complexity region (Fmr1, Mus musculus, UniProt P35922)
Shared flanks, not repeated: GGGAGUUCUACAGUCCGACGAUC … UGGAAUUCUCGGGUGUCAAGG
AGUCCUGUGCUACACAUCGUAUGUACCGAAUCGGGAAAAGGAAAAGGGGAAAAGGGGAAAGUAUUAUGUUACGCCGUUCGGAUCUGCACU: 0.165
UAACUUUAGAGGAGGAUCUGAUGGAUAUGGCAGUGGACGCGGAUUUGGGGAUGGCUAUAAUGGGUAUGGAGGAGGACCUGGAGGUGGCAA: 0.136
UCCUGUGCUACACAUCGUAUGUACCGAAUCGGGGAAAAAGGGGAGGGGAAAAAAAGGGGAAAGUAUUAUGUUACGCCGUUCGGAUCUGCA: 0.291
UCCUGUGCUACACAUCGUAUGUACCGAAUCAAAUUUUUUUAAAUUUAAAUUUUUUUAAAAAAGUAUUAUGUUACGCCGUUCGGAUCUGCA: -0.343
GCAGGAAGUAAAAACAAAUGGAAAUGCUUCGGAUAGUGGCAGGGGUGGGGGUUGCUAAGGAAAGGGUGGGAUGGGAGUGAGUAAAGAGUU: 0.217
UCCUCAAGUCCUGUGCUACACAUCGUAUGUACCGAAUCGGUGGUGGUUUGGAAAGUAUUAUGUUACGCCGUUCGGAUCUGCACUUCCAGC: -0.258
GCAGGAAGUAAAAACAAAUGGAAAUGCUUCGGAUAGUGGCAGGGAAAGGGGUUGCUAAGGAAAGGGUGGGAUGGGAGUGGGUAAAGAGUU: 0.223
GCAGGAAGUAAAAACAAACGGAAAUGCUUCGGAUAGUGGCAGGGGUGGGGGUUGCUAAGGAAAGGGUGGGAUGGGAGUGGGUAAAGAGUU: 0.187
CACAGACAACACGCACCCACACAGACACAGAGGGAAGGGGUUGUGAUGGGGACAGGGUGCACAGCAGGGCGGGGUAGGACCCCAGCCCCU: 0.798

For quick reference, copied from above (study 3):
CGTCCCGA: -0.156
ATCCCATA: 0.222
CGACTGGA: -0.219
GTGACGTA: 0.00543
AATTAGTG: 0.239
GGCTGCAC: -0.26
CGCCGGAG: -0.241
GGCGTCTA: -0.123
